Experimental data of several laboratories.
Each numbered part is a random draw from the data of one study; scales do not carry over between parts.
Sequence of UniProt Q96L34 (whole entry, looked up): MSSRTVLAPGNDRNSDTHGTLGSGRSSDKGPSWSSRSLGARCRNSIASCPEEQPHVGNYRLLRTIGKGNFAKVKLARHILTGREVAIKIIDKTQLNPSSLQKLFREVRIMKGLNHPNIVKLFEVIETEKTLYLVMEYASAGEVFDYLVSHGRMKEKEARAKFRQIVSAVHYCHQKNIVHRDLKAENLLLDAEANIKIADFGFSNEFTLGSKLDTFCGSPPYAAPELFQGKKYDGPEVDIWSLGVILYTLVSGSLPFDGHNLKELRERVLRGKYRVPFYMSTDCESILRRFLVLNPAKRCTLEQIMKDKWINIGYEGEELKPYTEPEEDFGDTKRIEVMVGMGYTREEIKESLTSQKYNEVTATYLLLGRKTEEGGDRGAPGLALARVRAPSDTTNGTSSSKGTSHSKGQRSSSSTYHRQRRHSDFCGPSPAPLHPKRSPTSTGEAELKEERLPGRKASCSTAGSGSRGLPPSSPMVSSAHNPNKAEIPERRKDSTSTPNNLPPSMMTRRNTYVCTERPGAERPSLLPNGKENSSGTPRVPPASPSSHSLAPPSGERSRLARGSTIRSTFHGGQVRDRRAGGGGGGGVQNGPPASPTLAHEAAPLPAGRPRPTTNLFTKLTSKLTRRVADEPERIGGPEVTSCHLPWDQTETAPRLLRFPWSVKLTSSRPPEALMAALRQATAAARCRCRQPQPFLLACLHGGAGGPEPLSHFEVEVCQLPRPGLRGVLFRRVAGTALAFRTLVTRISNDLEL
Sequence of UniProt Q00537 (whole entry, looked up): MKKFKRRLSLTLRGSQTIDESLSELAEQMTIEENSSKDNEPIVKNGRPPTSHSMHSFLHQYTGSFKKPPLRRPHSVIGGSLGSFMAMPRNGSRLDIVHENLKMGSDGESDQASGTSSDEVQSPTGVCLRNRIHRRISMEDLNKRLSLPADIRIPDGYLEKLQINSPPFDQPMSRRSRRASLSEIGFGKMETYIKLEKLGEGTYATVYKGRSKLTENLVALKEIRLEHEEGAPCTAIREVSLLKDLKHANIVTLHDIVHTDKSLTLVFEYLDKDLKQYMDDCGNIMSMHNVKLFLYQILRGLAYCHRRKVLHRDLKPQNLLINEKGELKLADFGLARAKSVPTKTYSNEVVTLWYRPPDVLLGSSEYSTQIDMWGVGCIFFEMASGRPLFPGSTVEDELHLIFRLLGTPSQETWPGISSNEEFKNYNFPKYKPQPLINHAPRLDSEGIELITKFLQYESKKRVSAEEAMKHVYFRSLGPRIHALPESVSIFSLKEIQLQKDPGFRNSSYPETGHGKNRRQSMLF
Sequence of UniProt P49841 (whole entry, looked up): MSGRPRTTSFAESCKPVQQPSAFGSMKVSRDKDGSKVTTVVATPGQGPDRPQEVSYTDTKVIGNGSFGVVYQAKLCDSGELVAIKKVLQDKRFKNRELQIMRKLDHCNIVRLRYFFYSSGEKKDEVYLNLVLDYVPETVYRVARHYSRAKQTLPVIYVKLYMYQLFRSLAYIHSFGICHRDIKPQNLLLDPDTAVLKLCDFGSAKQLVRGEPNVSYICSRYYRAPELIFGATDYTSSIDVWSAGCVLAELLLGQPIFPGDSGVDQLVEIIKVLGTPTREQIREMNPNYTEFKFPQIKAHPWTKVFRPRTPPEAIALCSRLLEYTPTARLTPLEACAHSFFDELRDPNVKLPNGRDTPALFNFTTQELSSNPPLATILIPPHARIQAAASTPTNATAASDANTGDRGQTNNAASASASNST
Sequence of UniProt O75676 (whole entry, looked up): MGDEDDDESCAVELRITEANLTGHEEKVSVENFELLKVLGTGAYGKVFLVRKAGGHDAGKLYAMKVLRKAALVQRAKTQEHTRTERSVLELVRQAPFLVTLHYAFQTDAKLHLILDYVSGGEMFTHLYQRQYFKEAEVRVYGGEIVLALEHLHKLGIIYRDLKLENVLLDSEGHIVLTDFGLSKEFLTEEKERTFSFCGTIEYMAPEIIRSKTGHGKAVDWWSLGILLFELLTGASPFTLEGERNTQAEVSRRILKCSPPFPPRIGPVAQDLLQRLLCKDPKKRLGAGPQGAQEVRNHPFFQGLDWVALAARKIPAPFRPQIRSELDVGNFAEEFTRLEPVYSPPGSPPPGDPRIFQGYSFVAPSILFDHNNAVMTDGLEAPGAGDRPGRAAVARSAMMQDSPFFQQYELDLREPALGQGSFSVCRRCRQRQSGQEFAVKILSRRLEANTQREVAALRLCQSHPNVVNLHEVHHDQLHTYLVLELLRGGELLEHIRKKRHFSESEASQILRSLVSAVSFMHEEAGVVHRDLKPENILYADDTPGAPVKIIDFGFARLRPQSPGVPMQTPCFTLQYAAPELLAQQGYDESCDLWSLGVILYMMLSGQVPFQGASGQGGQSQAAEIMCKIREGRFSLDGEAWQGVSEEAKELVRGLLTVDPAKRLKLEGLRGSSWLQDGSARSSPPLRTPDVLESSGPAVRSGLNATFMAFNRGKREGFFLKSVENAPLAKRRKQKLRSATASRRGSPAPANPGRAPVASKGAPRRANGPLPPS
Sequence of UniProt Q15759 (whole entry, looked up): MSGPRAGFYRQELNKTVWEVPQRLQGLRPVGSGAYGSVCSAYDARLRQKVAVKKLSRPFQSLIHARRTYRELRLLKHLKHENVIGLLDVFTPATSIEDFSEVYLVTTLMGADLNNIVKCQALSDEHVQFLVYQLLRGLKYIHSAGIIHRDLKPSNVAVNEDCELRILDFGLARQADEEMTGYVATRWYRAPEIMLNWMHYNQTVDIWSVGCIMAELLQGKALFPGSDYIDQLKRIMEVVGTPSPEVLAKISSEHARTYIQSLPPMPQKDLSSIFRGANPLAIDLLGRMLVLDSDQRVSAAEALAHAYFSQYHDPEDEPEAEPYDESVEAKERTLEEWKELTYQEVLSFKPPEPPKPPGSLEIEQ
Sequence of UniProt Q99759 (whole entry, looked up): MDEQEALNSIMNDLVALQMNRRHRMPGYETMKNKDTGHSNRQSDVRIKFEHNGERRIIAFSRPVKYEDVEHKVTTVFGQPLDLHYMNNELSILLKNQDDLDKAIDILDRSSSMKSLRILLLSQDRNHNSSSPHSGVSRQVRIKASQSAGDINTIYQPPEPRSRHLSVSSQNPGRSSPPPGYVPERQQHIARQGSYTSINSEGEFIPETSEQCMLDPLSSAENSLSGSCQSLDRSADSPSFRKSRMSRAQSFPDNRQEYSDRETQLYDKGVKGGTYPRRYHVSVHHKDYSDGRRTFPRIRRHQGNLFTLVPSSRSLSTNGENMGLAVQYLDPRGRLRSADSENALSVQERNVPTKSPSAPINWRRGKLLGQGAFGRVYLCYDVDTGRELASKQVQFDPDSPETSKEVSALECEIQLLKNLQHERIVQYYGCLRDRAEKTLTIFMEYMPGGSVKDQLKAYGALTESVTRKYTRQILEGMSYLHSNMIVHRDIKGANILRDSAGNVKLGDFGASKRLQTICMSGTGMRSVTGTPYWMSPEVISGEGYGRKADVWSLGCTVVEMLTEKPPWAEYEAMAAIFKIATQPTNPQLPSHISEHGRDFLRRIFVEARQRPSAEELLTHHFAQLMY

Set 1
SMILES: CCC(=N\O)/C(C)=C/c1ccc(F)cc1
Effect on: cell-free assay
Method: competition with immobilised ligand
Concentration: 1 µM
It gave 100% for remaining binding (HCK (Homo sapiens, UniProt P08631)).
It gave 63% for remaining binding (MAP3K1 (Homo sapiens, UniProt Q13233)).
It gave 100% for remaining binding (NEK3 (Homo sapiens, UniProt P51956)).
The remaining binding was 61% (EGFR (Homo sapiens, UniProt P00533, del746-750)).
CDK17 (Homo sapiens, UniProt Q00537) — remaining binding: 90%.
MARK4 (Homo sapiens, UniProt Q96L34) — remaining binding: 100%.
HASPIN (Homo sapiens, UniProt Q8TF76) — remaining binding: 65%.
The remaining binding was 86% (MAP3K3 (Homo sapiens, UniProt Q99759)).
MAP3K4 (Homo sapiens, UniProt Q9Y6R4) — remaining binding: 99%.
It gave 87% for remaining binding (BMPR1B (Homo sapiens, UniProt O00238)).
For MAPK11 (Homo sapiens, UniProt Q15759): remaining binding read 82%.
GSK3B (Homo sapiens, UniProt P49841) — remaining binding: 79%.
The remaining binding was 65% (STK32C (Homo sapiens, UniProt Q86UX6)).
For MAP3K6 (Homo sapiens, UniProt O95382): remaining binding read 63%.
For EGFR (Homo sapiens, UniProt P00533, del747-750/T751S): remaining binding read 65%.
The remaining binding was 76% (STK10 (Homo sapiens, UniProt O94804)).
The remaining binding was 77% (ACVR1B (Homo sapiens, UniProt P36896)).
Tyrosine-protein kinase ABL1, non-phosphorylated (ABL1, Homo sapiens, UniProt P00519, F317L) — remaining binding: 81%.
It gave 66% for remaining binding (MAP3K19 (Homo sapiens, UniProt Q56UN5)).
For STK36 (Homo sapiens, UniProt Q9NRP7): remaining binding read 84%.
It gave 67% for remaining binding (CHUK (Homo sapiens, UniProt O15111)).
The remaining binding was 96% (Ribosomal protein S6 kinase alpha-4, N-terminal kinase domain (RPS6KA4, Homo sapiens, UniProt O75676)).
MYLK4 (Homo sapiens, UniProt Q86YV6) — remaining binding: 94%.
For MAP2K1 (Homo sapiens, UniProt Q02750): remaining binding read 95%.
MAP2K4 (Homo sapiens, UniProt P45985) — remaining binding: 75%.

Set 2
Target: Calcium/calmodulin-dependent protein kinase type II subunit alpha (CAMK2A, Homo sapiens, UniProt Q9UQM7)
Sequence of UniProt Q9UQM7 (whole entry, looked up): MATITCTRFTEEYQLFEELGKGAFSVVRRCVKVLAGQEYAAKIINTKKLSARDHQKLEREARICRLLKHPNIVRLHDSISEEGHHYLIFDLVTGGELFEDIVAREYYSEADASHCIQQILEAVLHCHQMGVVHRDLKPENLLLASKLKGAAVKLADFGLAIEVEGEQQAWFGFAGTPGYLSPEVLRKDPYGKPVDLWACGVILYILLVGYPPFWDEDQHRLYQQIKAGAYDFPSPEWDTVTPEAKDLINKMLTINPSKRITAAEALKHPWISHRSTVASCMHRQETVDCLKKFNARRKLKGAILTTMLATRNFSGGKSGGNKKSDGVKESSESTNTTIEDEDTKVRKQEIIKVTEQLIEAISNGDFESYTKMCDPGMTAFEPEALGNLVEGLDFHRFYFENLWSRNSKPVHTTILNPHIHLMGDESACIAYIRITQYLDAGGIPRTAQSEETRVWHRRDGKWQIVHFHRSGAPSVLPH
Effect on: enzyme activity
Mode: inhibitor
Concentration: 10 µM
With O=C(NCCCN1CCOCC1)c1ccc(Cl)cc1 the inhibition was -6%.
CC(C)(CC(=O)O)CC(=O)O gave an inhibition of -15%.
CC(=O)O[C@H]1C(=O)[C@]2(C)[C@H](O)C[C@H]3OC[C@@]3(OC(C)=O)[C@H]2[C@H](OC(=O)c2ccccc2)[C@]2(O)C[C@H](OC(=O)[C@H](O)[C@@H](NC(=O)c3ccccc3)c3ccccc3)C(C)=C1C2(C)C gave an inhibition of 1%.
CC1=C[C@@]2(O)O[C@@]3(CC2=C(C)C)[C@@H](C)CC[C@@H]13 gave an inhibition of 30%.
CC(c1cc2ccccc2s1)N(O)C(N)=O (stereo not shown) has an inhibition of 5%.
With CCOC(=O)OC(C)OC(=O)[C@@H]1N2C(=O)[C@@H](NC(=O)[C@H](N)c3ccccc3)[C@H]2SC1(C)C (stereo partly shown) the inhibition was -7%.
O=C(O)[C@H](O)[C@@H](O)CO has an inhibition of 19%.
O=C[C@H](O)[C@@H](O)[C@H](O[C@H]1O[C@H](CO)[C@@H](O[C@H]2O[C@H](CO)[C@@H](O[C@H]3O[C@H](CO)[C@@H](O[C@H]4O[C@H](CO)[C@@H](O[C@H]5O[C@H](CO)[C@@H](O)[C@H](O)[C@H]5O)[C@H](O)[C@H]4O)[C@H](O)[C@H]3O)[C@H](O)[C@H]2O)[C@H](O)[C@H]1O)[C@H](O)CO has an inhibition of 1%.
With CC(C)n1c(/C=C/[C@H](O)C[C@H](O)CC(=O)O)c(-c2ccc(F)cc2)c2ccccc21 (racemic) the inhibition was -5%.
CC1(O)CCC(C(C)(C)O)CC1 (stereo not shown) has an inhibition of -2%.
CCCCCCCC(O)CC(=O)O (stereo not shown) has an inhibition of 5%.
O=C(O)c1ccco1 has an inhibition of 20%.
CC1(C)CC[C@]2(C(=O)O[C@@H]3O[C@H](CO)[C@@H](O)[C@H](O)[C@H]3O)CC[C@]3(C)C(=CC[C@@H]4[C@@]5(C)CC[C@H](O[C@@H]6O[C@H](C(=O)O)[C@@H](O)[C@H](O)[C@H]6O[C@H]6OC[C@@H](O)[C@H](O)[C@H]6O)C(C)(C)[C@@H]5CC[C@]43C)[C@@H]2C1 has an inhibition of 2%.

Set 3
SMILES: C=CCc1ccc(O)c(-c2ccc(O)c(CC=C)c2)c1
Effect on: chloride current
Method: whole-cell voltage clamp
ANO1 del476-501/R631D: Anoctamin-1 (ANO1, Homo sapiens, UniProt Q5XXA6, del476-501/R631D)
Sequence of UniProt Q5XXA6 (whole entry, unmodified, looked up): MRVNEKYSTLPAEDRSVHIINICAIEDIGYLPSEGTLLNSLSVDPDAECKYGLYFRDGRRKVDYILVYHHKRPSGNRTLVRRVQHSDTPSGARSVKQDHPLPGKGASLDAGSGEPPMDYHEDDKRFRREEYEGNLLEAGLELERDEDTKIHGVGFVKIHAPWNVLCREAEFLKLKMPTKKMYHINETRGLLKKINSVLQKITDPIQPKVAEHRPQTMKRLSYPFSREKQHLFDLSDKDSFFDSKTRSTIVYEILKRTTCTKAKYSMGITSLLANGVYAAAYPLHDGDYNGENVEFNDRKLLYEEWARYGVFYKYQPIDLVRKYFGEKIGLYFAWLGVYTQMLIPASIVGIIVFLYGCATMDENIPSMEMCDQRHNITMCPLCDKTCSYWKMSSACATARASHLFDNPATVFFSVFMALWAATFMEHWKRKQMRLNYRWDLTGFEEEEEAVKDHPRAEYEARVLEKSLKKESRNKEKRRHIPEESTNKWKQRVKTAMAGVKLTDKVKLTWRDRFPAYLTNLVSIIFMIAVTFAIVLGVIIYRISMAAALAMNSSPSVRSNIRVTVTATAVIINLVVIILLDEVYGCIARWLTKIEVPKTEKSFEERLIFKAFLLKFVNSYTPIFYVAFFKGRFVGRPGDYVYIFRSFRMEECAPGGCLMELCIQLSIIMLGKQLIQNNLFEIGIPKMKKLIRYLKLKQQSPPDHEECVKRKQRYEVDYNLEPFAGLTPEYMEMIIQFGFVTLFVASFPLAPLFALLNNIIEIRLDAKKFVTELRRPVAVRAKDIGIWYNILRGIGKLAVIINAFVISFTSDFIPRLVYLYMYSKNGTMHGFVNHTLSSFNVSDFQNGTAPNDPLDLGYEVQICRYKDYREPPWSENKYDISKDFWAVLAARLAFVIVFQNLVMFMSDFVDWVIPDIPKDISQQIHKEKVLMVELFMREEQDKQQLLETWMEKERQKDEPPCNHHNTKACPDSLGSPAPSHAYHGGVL
ANO1 del476-501/F628W: Anoctamin-1 (ANO1, Homo sapiens, UniProt Q5XXA6, del476-501/F628W)
ANO1 del476-501/E650A: Anoctamin-1 (ANO1, Homo sapiens, UniProt Q5XXA6, del476-501/E650A)
It gave 7.84 µM for IC50 (Anoctamin-1 (ANO1, Homo sapiens, UniProt Q5XXA6, del476-501/L548A); membrane voltage -80 mV).
For Anoctamin-1 (ANO1, Homo sapiens, UniProt Q5XXA6, del476-501/F628I); inhibitor; F602I mutant at -40 mV: IC50 read 13.7 µM.
For ANO1 del476-501/R631D; inhibitor; mutant R605D: IC50 read 26 µM.
Anoctamin-1 (ANO1, Homo sapiens, UniProt Q5XXA6, del476-501/F803A); membrane voltage 60 mV — IC50: 11.7 µM.
The IC50 was 6.19 µM (Anoctamin-1 (ANO1, Homo sapiens, UniProt Q5XXA6, del476-501/F807I); inhibitor; F781I mutant at 40 mV).
Anoctamin-1 (ANO1, Homo sapiens, UniProt Q5XXA6, del476-501); inhibitor; 40 mV voltage, together with: 300 nM Ca2+ — IC50: 3.42 µM.
For Anoctamin-1 (ANO1, Homo sapiens, UniProt Q5XXA6, del476-501/F807A); membrane voltage -80 mV: IC50 read 40.1 µM.
The IC50 was 10.8 µM (Anoctamin-1 (ANO1, Homo sapiens, UniProt Q5XXA6, del476-501/F803Y); inhibitor; 40 mV holding voltage).
For ANO1 del476-501/F628W; inhibitor; 80 mV holding voltage: IC50 read 13.9 µM.
ANO1 del476-501/E650A; membrane voltage -20 mV — IC50: 3.63 µM.
ANO1 del476-501/R631D; inhibitor; R605D mutant at -20 mV — IC50: 19.9 µM.
It gave 23.3 µM for IC50 (Anoctamin-1 (ANO1, Homo sapiens, UniProt Q5XXA6, del476-501/F628Y); inhibitor; 80 mV holding voltage).
The IC50 was 8.1 µM (Anoctamin-1 (ANO1, Homo sapiens, UniProt Q5XXA6, del476-501/R561A); membrane voltage -100 mV).
It gave 18.5 µM for IC50 (Anoctamin-1 (ANO1, Homo sapiens, UniProt Q5XXA6, del476-501/F623A); membrane voltage -80 mV).
The IC50 was 12.9 µM (ANO1 del476-501/F628W; inhibitor; 60 mV holding voltage).
For ANO1 del476-501/E650A; membrane voltage 20 mV: IC50 read 3.21 µM.
For Anoctamin-1 (ANO1, Homo sapiens, UniProt Q5XXA6, D383A/del476-501); membrane voltage -40 mV: IC50 read 9.59 µM.

Set 4
SMILES: O=C(Nc1cnn(-c2csc(C(=O)NC3COC3)c2)c1)Nc1ccccc1Cl
Effect on: enzyme activity
Concentration: 5 µM
Reference: untreated control
The remaining activity was 94.7% (CHEK2 (Homo sapiens, UniProt O96017)).
The remaining activity was 91.6% (DYRK4 (Homo sapiens, UniProt Q9NR20)).
DCLK1 (Homo sapiens, UniProt O15075) — remaining activity: 95%.
CAMK2G (Homo sapiens, UniProt Q13555) — remaining activity: 94.5%.
For MINK1 (Homo sapiens, UniProt Q8N4C8): remaining activity read 78.6%.
For CDK14 (Homo sapiens, UniProt O94921): remaining activity read 106%.
The remaining activity was 80.1% (MAP4K4 (Homo sapiens, UniProt O95819)).
The remaining activity was 94.2% (PASK (Homo sapiens, UniProt Q96RG2)).
It gave 95.2% for remaining activity (Cyclin-dependent kinase 3, with cyclin E2 (CDK3, Homo sapiens, UniProt Q00526)).
It gave 63.2% for remaining activity (CLK4 (Homo sapiens, UniProt Q9HAZ1)).
Cyclin-dependent kinase 17, with cyclin Y (CDK17, Homo sapiens, UniProt Q00537) — remaining activity: 106%.
It gave 95.1% for remaining activity (MAP2K6 (Homo sapiens, UniProt P52564)).
The remaining activity was 114% (RIPK2 (Homo sapiens, UniProt O43353)).
For MAP4K2 (Homo sapiens, UniProt Q12851): remaining activity read 102%.
It gave 101% for remaining activity (MARK4 (Homo sapiens, UniProt Q96L34)).
